Published values gathered from unrelated publications.
Protocols differ between the studies behind these lines.

CC(C)(C)NC(=O)C1CCN(Cc2ccc(/N=N/c3ccccc3)cc2)CC1  absorption maximum, trans isomer (DMSO; 25 µM, 25 °C): 332 nm
COc1cc(-c2[o+]c3cc(O)cc(O)c3cc2O[C@@H]2O[C@H](CO)[C@@H](O)[C@H](O)[C@H]2O)cc(O)c1O  absorption maximum (buffer without protein; 50 µM, pH 7): 568 nm
COC(=O)c1ccccc1-c1c2ccc(=O)cc-2oc2c1ccc1cccc(N(C)C)c12  absorption maximum (aqueous HCl 10% DMSO; 10 to 15 µM, pH 1.9): 480 nm
CNC(=O)c1c(C)oc2cc(Oc3ncnc4cc(OC)c(OC)cc34)ccc12  absorption rate constant ka (final population PK model; cancer patient weighing sample A kg; oral, no proton pump inhibitor): 2.52 h⁻¹
CC1(C)C(/C=C/C2=C(Cl)C(=C/C=C3\N(CCCCCC(=O)O)c4ccccc4C3(C)C)/CCC2)=[N+](CCCCCC(=O)O)c2ccccc21  absorption maximum (methanol): 781 nm
CC(C)(C)NC(=O)C1CCN(Cc2cccc(/N=N/c3ccc(C(F)(F)F)cc3)c2)CC1  absorption maximum, cis isomer (DMSO; 25 µM, 25 °C): 436 nm
Cn1cncc1-c1c(F)cncc1NC(=O)c1c(N)nn2cc(F)cnc12  absorption rate constant ka (population PK model; patients with solid tumours, plasma; oral, 270 mg once daily): 0.441 h⁻¹
CC[C@@H]1CN(C(=O)NCC(F)(F)F)C[C@@H]1c1cnc2cnc3[nH]ccc3n12  absorption rate constant (population PK model; healthy, RA and CD subjects, plasma; oral, immediate-release formulation): 3.6 h⁻¹
COc1ccc2c(c1)sc(-c1ccc(N(C)C)cc1)[n+]2C  absorption maximum wavelength (PBS; free dye): 414 nm
CC(C)(C)NC(=O)C1CCN(Cc2cccc(/N=N/c3ccccc3)c2)CC1  absorption maximum, trans isomer (DMSO; 25 µM, 25 °C): 327 nm
CC1=NN(c2ccc(C)c(C)c2)C(=O)/C1=N\Nc1cccc(-c2cccc(C(=O)O)c2)c1O  absorption rate constant (Ka) (compartmental model; healthy subjects, plasma; oral, 75 mg): 1.02 h⁻¹
OC[C@H]1O[C@@H](Oc2cc3c(O)cc(O)cc3[o+]c2-c2ccc(O)cc2)[C@H](O)[C@@H](O)[C@@H]1O  absorption maximum (buffer without protein; 50 µM, pH 7): 533 nm
CC(C)(C)NC(=O)C1CCN(Cc2ccc(/N=N/c3ccc(F)cc3)cc2)CC1  absorption maximum, cis isomer (DMSO; 25 µM, 25 °C): 437 nm
CC1(C)CCC(CN2CCN(c3ccc(C(=O)NS(=O)(=O)c4ccc(NCC5CCOCC5)c([N+](=O)[O-])c4)c(Oc4cnc5[nH]ccc5c4)c3)CC2)=C(c2ccc(Cl)cc2)C1  absorption rate constant (Ka) (final population PK model; AML patients, plasma; oral): 0.152 h⁻¹

Excerpt of the above:
CC1(C)CCC(CN2CCN(c3ccc(C(=O)NS(=O)(=O)c4ccc(NCC5CCOCC5)c([N+](=O)[O-])c4)c(Oc4cnc5[nH]ccc5c4)c3)CC2)=C(c2ccc(Cl)cc2)C1  absorption rate constant (Ka) (final population PK model; AML patients, plasma; oral): 0.152 h⁻¹
